Assay results of several laboratories.
Protocols differ between the studies behind these lines. “And” joins repeats or separate records; there may be more than shown. ± gives the spread as reported.
WD repeat-containing protein 91: WD repeat-containing protein 91 (Homo sapiens, UniProt A4D1P6)
Sequence of UniProt A4D1P6 (whole entry, looked up): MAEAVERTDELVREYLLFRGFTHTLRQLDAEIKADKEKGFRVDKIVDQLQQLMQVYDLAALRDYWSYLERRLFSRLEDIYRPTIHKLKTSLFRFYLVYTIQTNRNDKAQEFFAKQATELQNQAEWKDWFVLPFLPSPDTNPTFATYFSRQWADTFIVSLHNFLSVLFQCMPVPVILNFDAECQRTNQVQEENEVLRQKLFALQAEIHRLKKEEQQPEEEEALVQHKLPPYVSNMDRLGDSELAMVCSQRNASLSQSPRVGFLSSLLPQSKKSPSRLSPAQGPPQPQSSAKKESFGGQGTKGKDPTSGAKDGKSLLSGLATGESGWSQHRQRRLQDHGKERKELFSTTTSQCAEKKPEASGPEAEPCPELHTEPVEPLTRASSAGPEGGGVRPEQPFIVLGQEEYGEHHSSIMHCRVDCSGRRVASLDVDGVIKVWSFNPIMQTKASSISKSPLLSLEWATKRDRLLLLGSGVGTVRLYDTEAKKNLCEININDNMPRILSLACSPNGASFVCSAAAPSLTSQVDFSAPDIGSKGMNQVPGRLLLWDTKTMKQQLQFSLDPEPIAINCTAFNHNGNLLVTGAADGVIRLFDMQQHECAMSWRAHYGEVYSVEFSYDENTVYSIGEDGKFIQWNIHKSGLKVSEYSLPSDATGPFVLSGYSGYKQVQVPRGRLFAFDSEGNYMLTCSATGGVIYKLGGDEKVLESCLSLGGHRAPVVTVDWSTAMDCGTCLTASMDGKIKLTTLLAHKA
Genome polyprotein NS3 helicase domain: Genome polyprotein, NS3 helicase domain (Hepatitis C virus genotype 1b, UniProt Q9WMX2)
ESR1: Estrogen receptor (ESR1, Homo sapiens, UniProt P03372)
Sequence of UniProt P03372 (whole entry, looked up): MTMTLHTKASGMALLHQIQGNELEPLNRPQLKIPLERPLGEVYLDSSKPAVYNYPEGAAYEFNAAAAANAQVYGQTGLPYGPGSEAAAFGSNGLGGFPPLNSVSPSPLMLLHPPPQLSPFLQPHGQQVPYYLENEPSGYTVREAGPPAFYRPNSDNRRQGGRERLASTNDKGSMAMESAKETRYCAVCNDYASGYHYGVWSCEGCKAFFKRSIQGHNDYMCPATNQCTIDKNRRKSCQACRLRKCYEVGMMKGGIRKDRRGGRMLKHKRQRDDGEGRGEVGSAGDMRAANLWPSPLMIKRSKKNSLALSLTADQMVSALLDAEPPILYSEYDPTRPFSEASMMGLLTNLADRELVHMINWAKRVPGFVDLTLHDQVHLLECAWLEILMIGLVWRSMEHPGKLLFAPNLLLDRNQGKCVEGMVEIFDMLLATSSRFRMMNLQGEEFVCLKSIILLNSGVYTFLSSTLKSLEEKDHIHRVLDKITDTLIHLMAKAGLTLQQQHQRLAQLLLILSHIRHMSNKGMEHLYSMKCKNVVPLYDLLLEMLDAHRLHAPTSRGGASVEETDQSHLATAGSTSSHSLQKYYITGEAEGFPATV
WD repeat-containing protein 91 WD40 domain, residues 392–747: WD repeat-containing protein 91, WD40 domain, residues 392–747 (Homo sapiens, UniProt A4D1P6)
Sequence of UniProt P02754 (whole entry, looked up): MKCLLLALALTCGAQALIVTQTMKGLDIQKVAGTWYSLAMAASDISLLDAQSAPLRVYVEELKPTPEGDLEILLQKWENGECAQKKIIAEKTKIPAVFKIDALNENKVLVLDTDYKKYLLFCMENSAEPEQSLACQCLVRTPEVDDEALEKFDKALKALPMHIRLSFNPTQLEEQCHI
Sequence of UniProt P51575 (whole entry, unmodified, looked up): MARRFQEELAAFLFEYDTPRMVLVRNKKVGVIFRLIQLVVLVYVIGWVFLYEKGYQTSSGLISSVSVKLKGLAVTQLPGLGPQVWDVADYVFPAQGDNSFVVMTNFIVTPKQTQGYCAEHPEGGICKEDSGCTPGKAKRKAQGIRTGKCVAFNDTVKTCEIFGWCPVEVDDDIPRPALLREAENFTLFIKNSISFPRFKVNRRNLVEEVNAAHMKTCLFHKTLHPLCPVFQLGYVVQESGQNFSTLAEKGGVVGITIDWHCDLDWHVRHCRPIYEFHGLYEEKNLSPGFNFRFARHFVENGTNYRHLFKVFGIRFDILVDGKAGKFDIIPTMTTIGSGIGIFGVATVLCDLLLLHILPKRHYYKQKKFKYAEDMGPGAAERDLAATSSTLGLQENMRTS
Sequence of UniProt Q9UH17 (whole entry, looked up): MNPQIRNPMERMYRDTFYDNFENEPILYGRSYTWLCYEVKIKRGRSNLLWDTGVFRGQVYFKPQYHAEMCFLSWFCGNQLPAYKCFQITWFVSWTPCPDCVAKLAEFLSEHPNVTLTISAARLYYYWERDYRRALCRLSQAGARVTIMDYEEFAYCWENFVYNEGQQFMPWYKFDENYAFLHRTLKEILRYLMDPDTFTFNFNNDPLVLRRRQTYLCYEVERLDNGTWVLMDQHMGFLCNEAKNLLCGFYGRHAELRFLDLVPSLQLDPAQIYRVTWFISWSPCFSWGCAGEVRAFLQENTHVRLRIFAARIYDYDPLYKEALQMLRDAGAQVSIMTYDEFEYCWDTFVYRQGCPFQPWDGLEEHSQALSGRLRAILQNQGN
Sequence of UniProt Q93015 (whole entry, looked up): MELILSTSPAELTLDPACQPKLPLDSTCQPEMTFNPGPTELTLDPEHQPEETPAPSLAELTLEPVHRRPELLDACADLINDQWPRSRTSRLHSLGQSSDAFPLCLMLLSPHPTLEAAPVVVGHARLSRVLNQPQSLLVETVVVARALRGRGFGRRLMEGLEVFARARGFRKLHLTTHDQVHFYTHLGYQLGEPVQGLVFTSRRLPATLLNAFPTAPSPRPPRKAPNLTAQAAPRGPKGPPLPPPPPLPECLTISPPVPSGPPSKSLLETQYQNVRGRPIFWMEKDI
Sequence of UniProt C7FF04 (whole entry, looked up): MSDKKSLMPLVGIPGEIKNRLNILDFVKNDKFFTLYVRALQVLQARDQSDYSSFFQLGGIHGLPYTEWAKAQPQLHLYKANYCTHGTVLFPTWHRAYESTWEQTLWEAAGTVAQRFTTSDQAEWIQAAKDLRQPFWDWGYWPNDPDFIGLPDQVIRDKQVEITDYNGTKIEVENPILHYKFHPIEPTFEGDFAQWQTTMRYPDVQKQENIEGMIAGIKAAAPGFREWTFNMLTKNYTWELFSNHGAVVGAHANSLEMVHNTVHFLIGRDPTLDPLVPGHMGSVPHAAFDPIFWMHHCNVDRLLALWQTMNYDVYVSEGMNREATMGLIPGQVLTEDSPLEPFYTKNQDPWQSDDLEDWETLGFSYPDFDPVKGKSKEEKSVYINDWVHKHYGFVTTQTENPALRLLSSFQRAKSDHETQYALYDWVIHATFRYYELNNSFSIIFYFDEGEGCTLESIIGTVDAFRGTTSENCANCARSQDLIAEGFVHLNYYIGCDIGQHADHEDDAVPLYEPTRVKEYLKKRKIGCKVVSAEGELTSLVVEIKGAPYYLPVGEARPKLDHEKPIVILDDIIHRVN
Sequence of UniProt P42262 (whole entry, looked up): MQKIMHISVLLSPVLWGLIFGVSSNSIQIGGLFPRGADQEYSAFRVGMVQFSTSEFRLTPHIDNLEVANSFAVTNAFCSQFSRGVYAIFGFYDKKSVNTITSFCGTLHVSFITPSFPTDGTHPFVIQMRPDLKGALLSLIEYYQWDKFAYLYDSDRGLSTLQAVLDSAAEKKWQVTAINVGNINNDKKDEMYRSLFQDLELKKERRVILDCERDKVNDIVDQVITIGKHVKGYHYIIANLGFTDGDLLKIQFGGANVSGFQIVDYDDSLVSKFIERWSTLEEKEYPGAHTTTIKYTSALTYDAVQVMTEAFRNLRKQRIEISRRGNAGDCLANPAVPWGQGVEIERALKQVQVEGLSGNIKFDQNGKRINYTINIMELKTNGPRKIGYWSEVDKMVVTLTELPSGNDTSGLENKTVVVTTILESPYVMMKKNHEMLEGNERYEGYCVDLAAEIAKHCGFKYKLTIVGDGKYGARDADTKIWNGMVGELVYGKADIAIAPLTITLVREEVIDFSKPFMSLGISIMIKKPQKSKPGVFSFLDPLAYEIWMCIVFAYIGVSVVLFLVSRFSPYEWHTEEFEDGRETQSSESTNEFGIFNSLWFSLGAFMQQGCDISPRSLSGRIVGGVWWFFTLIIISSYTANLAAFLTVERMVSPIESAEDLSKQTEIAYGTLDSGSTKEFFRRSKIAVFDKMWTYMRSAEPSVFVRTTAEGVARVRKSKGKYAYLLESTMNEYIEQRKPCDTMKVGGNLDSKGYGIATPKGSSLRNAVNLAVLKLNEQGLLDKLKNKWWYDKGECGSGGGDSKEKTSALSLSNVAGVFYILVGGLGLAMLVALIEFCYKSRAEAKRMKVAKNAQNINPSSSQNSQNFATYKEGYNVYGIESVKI
Sequence of UniProt P21554 (whole entry, looked up): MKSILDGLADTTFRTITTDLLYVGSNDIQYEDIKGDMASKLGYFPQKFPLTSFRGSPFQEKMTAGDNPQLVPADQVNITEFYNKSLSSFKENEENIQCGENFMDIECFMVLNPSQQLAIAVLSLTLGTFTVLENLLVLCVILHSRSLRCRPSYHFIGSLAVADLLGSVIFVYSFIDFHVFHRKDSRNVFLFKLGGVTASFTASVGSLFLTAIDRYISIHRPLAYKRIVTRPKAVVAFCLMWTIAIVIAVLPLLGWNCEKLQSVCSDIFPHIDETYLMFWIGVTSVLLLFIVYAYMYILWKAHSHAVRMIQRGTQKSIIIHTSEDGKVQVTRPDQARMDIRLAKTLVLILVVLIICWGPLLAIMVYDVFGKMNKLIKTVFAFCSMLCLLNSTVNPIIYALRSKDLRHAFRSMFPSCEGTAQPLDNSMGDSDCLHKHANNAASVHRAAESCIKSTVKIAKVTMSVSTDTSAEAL

| SMILES | target | assay | test system | setting | scale | quantity | result |
| --- | --- | --- | --- | --- | --- | --- | --- |
| CC1(C)CC2(C)OC(=O)NC2(C)c2ccccc21 (centres unmarked) | WD repeat-containing protein 91 | binding, affinity selection mass spectrometry | – | – | relative to: other proteins in batch | fold enrichment | 1.64 |
| Nc1ncnc2c1ncn2[C@@H]1O[C@H](COP(=O)(O)CP(=O)(O)OP(=O)(O)O)[C@@H](O)[C@H]1O | P2X purinoceptor 1 (P2RX1, Homo sapiens, UniProt P51575, E282A) | saturation binding | HEK293 | 103 nM | – | specific binding | 2520 CCPM and 1560 CCPM |
| COc1cc2ncnc(Nc3cccc(Cl)c3)c2cc1OC | Genome polyprotein NS3 helicase domain | DNA binding, inhibitor | hepatitis C virus | 100 µM, together with: Cy5-dT15 DNA | – | inhibition | 0% |
| O=c1nc(SCc2cc(F)cc(C(F)(F)F)c2)nc(SCc2ccc3sccc3c2)[nH]1 | TOP2A (Homo sapiens, UniProt P11388) | DNA cleavage | – | 7.8 µM, replicate 1 | – | linear DNA | 0% |
| O=C(/C=C/c1ccc(O)cc1)c1ccccc1 | ESR1 | array formation | PRL-HeLa | – | relative to: EC50 ERβ over EC50 ERα | selectivity ratio | 8.54 |
| CCN(CC)C(=O)c1ccc(O)c(OC)c1 | Genome polyprotein NS3 helicase domain | DNA binding, inhibitor | hepatitis C virus | 100 µM, together with: Cy5-dT15 DNA | – | inhibition | 0% |
| CC(=O)NCc1ccccc1N1CCN(C(=O)c2cc3cccn3cn2)CC1 | WD repeat-containing protein 91 WD40 domain, residues 392–747 | binding, SPR single-concentration screen | – | 45 µM | – | SPR response | -6.2 RU and -1.3 RU |
| CC1=C[C@H](O)CC(C)(C)[C@H]1/C=C/C(C)=C/C=C/C(C)=C/C=C/C=C(C)/C=C/C=C(C)/C=C/C1=C(C)C[C@@H](O)CC1(C)C | Beta-lactoglobulin (LGB, Bos taurus, UniProt P02754) | fluorescence quenching | – | concentration not given, 298 K | – | number of binding sites | 2.22 and ~2 |
| CC(C)NCC(O)COc1cccc2ccccc12 (centres unmarked) | Glutamate receptor 2 (Homo sapiens, UniProt P42262) | ion current, positive allosteric modulator, SyncroPatch patch clamp | HEK293 | 30 µM | – | potentiation | 105% |
| CN1C(=O)C(c2c(-c3ccc(Cl)cc3)[nH]c3c2c(=O)[nH]c(=O)n3C)c2ccccc21 (centres unmarked) | WD repeat-containing protein 91 | binding, SPR steady state | – | 15 µM | – | SPR response | 27.5 RU |
| O=C1C[C@@H](c2ccc(O)cc2)Oc2cc(O)cc(O)c21 | ESR1 | array formation | PRL-HeLa | – | relative to: EC50 ERβ over EC50 ERα | selectivity ratio | 1.29 |
| COc1cc(/C=C/c2ccc(O)cc2)cc(OC)c1 | O-methyltransferase (Sorghum bicolor, UniProt A0A1B6PFV1) | isothermal titration calorimetry | – | concentration not given, apo protein | – | ΔG of binding | -7.74 kcal/mol |
| NCCCCC(NC(=O)CNC(=O)Cc1ccccc1)C(=O)O (centres unmarked) | N-alpha-acetyltransferase 80 (NAA80, Homo sapiens, UniProt Q93015) | substrate, DTNB | – | 2 mM, 30 min, 37 °C, together with: acetyl-CoA 500 µM | – | product formation | 1.84 µM |
| CCC1(O)CCCN(C(=O)c2ccc(-c3ccc(F)c(NC(=O)CCl)c3)cc2)C1 (centres unmarked) | DNA dC->dU-editing enzyme APOBEC-3B, C-terminal domain (Homo sapiens, UniProt Q9UH17) | covalent modifier, intact protein mass spectrometry | – | 500 µM, 1 h, 20-fold molar excess | – | unmodified protein | 7% and 22% |
| COc1c(C#N)cccc1CC(=O)Nc1ccc(N2CCc3sccc3C2)cc1 | WD repeat-containing protein 91 WD40 domain, residues 392–747 | binding, SPR single-concentration screen | – | 45 µM | – | SPR response | 1 RU and -3.6 RU |
| C1COC(NC(C2CC2)C2CC2)=N1 | Genome polyprotein NS3 helicase domain | DNA binding, inhibitor | hepatitis C virus | 100 µM, together with: Cy5-dT15 DNA | – | inhibition | 0% |
| CC[C@H](C)[C@H](NC(=O)[C@H](CCC(=O)O)NC(=O)[C@H](CCC(=O)O)NC(=O)[C@@H]1CCCN1C(=O)[C@H](CC(=O)O)NC(=O)[C@H](C)NC(=O)[C@H](CCC(N)=O)NC(=O)[C@@H](NC(=O)[C@H](C)NC(=O)[C@@H](NC(=O)[C@H](CO)NC(=O)[C@@H](NC(=O)[C@H](CCCCN)NC(=O)[C@@H](N)Cc1ccc(O)cc1)[C@@H](C)O)C(C)C)[C@@H](C)O)C(=O)N[C@H](C(=O)N[C@H](C(=O)N[C@@H](CC(C)C)C(=O)N[C@@H](CC(=O)O)C(=O)N[C@@H](CC(=O)O)C(=O)N[C@@H](CC(=O)O)C(=O)N[C@@H](CC(=O)O)C(=O)O)C(C)C)[C@@H](C)CC | Small ubiquitin-related modifier 2 (Homo sapiens, UniProt P61956, C48A) | isothermal titration calorimetry | – | pH 7.4, SUMO2 construct | – | -TΔS | -10.3 ± 0.2 kcal/mol |
| COc1ccc(-c2cncc(C(=O)N[C@@H]3CCc4c(C#N)cccc43)c2)c(C)c1 | WD repeat-containing protein 91 WD40 domain, residues 392–747 | binding, SPR single-concentration screen | – | 45 µM | – | SPR response | 32.3 RU and 31.5 RU |
| COc1cc(/C=C/C(=O)/C=C/c2ccc(O)c(OC)c2)ccc1O | haemin | binding, isothermal titration calorimetry | – | pH 7.4, 37 °C | – | ΔG | -8.84 ± 0.263 kcal/mol |
| CCCC(CCC)C(=O)O[C@H]1C[C@H]2CC[C@@H](C1)[N+]2(C)C | Genome polyprotein NS3 helicase domain | DNA binding, inhibitor | hepatitis C virus | 100 µM, together with: Cy5-dT15 DNA | – | inhibition | 0% |
| CC[C@H](C)[C@H](NC(=O)[C@H](CCCCN)NC(=O)CNC(=O)[C@@H](NC(=O)[C@@H](NC(=O)[C@H](CCSC)NC(=O)[C@H](Cc1c[nH]cn1)NC(=O)CN)[C@@H](C)O)C(C)C)C(=O)N[C@@H](Cc1ccc(O)cc1)C(=O)N[C@@H](C)C(=O)N[C@@H](C)C(=O)N[C@@H](CCSC)C(=O)N[C@@H](CCSC)C(=O)N[C@H](C(=O)N[C@@H](CCSC)C(=O)N[C@@H](CCC(=O)O)C(=O)N[C@@H](Cc1ccc(O)cc1)C(=O)N[C@@H](Cc1ccc(O)cc1)C(=O)N[C@@H](CCCNC(=N)N)C(=O)N[C@@H](CCC(N)=O)C(=O)N[C@@H](CO)C(=O)N[C@@H](CCCCN)C(=O)N[C@@H](C)C(=O)N[C@@H](CCCCN)C(=O)N[C@@H](CCCCN)C(=O)N[C@@H](CC(C)C)C(=O)N[C@@H](CCC(N)=O)C(=O)N[C@@H](C)C(=O)N[C@@H](CCSC)C(=O)N[C@@H](CCCNC(=N)N)C(=O)O)[C@@H](C)CC | Calmodulin-1, Ca2+-bound C-lobe (CALM1, Homo sapiens, UniProt P0DP23) | competition ITC | – | concentration not given, 15 °C, together with: pre-formed Ca2+/N-lobe–CaV2.1 IQ complex | – | binding stoichiometry | 0.75 ± 0.03 |
| O=C(NC1CCN(c2ncnc3c2nc(-c2ccccc2Cl)n3-c2ccc(Cl)cc2)CC1)c1ccc(F)cc1F | CNR1 (Homo sapiens, UniProt P21554) | binding, [3H]CP55940 displacement | – | – | relative to: Ki CB2 over Ki CB1 | selectivity ratio | > 3500 |
| CCCc1cc(=O)oc2cc(OCc3cc(=O)c(O)co3)ccc12 | PPO3 (Agaricus bisporus, UniProt C7FF04) | secondary structure of tyrosinase, CD spectroscopy | – | molar ratio 1:1 | – | β-sheet content | 16.9% |

Some of these lines once more:
| SMILES | target | assay | test system | setting | scale | quantity | result |
| --- | --- | --- | --- | --- | --- | --- | --- |
| O=c1nc(SCc2cc(F)cc(C(F)(F)F)c2)nc(SCc2ccc3sccc3c2)[nH]1 | TOP2A (Homo sapiens, UniProt P11388) | DNA cleavage | – | 7.8 µM, replicate 1 | – | linear DNA | 0% |
| CC1=C[C@H](O)CC(C)(C)[C@H]1/C=C/C(C)=C/C=C/C(C)=C/C=C/C=C(C)/C=C/C=C(C)/C=C/C1=C(C)C[C@@H](O)CC1(C)C | Beta-lactoglobulin (LGB, Bos taurus, UniProt P02754) | fluorescence quenching | – | concentration not given, 298 K | – | number of binding sites | 2.22 and ~2 |
